Measured values from different studies.
UniProt P37136, sequence (whole entry, looked up): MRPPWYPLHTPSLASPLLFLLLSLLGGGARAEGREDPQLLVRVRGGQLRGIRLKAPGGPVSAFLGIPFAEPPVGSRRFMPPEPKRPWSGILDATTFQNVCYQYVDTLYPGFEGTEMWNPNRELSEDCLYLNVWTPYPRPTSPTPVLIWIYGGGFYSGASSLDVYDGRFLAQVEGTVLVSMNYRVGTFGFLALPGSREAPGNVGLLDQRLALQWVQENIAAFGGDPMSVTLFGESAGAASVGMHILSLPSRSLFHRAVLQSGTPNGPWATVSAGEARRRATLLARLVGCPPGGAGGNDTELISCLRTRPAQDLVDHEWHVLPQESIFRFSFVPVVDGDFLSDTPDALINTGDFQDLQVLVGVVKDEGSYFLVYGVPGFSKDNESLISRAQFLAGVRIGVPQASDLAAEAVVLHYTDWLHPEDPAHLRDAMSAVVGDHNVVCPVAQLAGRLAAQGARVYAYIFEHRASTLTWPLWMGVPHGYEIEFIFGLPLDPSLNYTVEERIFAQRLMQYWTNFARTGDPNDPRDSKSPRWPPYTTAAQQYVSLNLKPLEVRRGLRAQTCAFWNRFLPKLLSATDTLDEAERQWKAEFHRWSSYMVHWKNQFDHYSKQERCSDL

| Molecule | target or system | test | test system | conditions | how to read | measurement | result |
| --- | --- | --- | --- | --- | --- | --- | --- |
| chicoric acid | IPEC-J2 monolayer | – | – | added: thapsigargin 10 µM | baseline: without inhibitor | Papp basolateral to apical | increased |
| maraviroc | – | – | white CYP3A5 poor metabolizers, plasma | 300 mg twice daily | – | Cavg | 246 ng/mL |
| phoxim-oxon | Ache (Rattus norvegicus, UniProt P37136) | inhibitor | rat, postnatal day 12, rat skeletal muscle homogenate | 15 min, 37 °C | – | IC50 | 0.012 µM |
| semaglutide | – | refers to: outcome unknown | human, safety analysis set | concentration not given, 32 weeks, run-in | – | participants with adverse events | 0% |
| deucravacitinib | – | – | human | oral, 6 mg twice daily, day 12, steady state, multiple dose | – | Tmax | 1 h |

For quick reference, copied from above:
| Molecule | target or system | test | test system | conditions | how to read | measurement | result |
| --- | --- | --- | --- | --- | --- | --- | --- |
| deucravacitinib | – | – | human | oral, 6 mg twice daily, day 12, steady state, multiple dose | – | Tmax | 1 h |
